Measured values gathered from unrelated publications.
Lines come from different studies, so protocols differ. Numbers after ± are the reported error.

| SMILES | tested on | test | system | setting | how to read | measurement | result |
| --- | --- | --- | --- | --- | --- | --- | --- |
| COC1CN([C@H]2CC[C@H]([C@@]3(C)Oc4c(Cl)cc(C(=O)NCc5c(SC)cc(C)[nH]c5=O)c(C)c4O3)CC2)C1 | – | RNA-seq, refers to: NDRG2 mouse homolog | mouse, HT-1376 xenograft, whole blood | dose not given | relative to: vehicle | log2 fold change | 0.622 |
| Nc1ncc(-c2cc(-c3cnn(CC(F)(F)F)c3)ncc2F)nc1C(=O)NC1CNCC(F)C1 (stereo not shown) | GRK4 | KINOMEscan | – | 1 µM | relative to: DMSO control | remaining binding | 86% |
| COc1cc(O)ccc1CCC(c1ccc(O)cc1)c1cc2c(c(C)c1O)OC(c1ccc(O)cc1)CC2 (mixture of isomers) | – | – | human blood | 3 µM, with: A23187 | – | EPA level | 69600 ± 18100 pg/mL |
| C=CC(=O)Nc1cccc(Cn2ncc3cnc(Nc4cnn(CCOC)c4)nc32)c1 | CDK4 human | binding, KINOMEscan | – | 100 nM | lower = stronger binding | percent of control | 97% |
| C[n+]1ccc(/C=N/NC(=O)C(=O)N/N=C/c2cc[n+](C)c3ccccc23)c2ccccc21 | myc22 MYC G4-DNA parallel | FRET melting | – | 1 µM, K1 buffer, DNA 0.2 µM, with: ds26 10 µM | – | ΔTm | 4.8 ± 0.5 °C |
| CNS(=O)(=O)Nc1nccc(Cc2c(C)c3ccc(Oc4ncccc4F)cc3oc2=O)c1F | BC-2 | cell viability | – | 7 days | – | IC50 | > 1 µM |
| C[n+]1ccc(/C=N/NC(=O)c2ccc3ccc(C(=O)N/N=C/c4cc[n+](C)cc4)nc3n2)cc1 | myc22 MYC G4-DNA parallel | FRET melting | – | 1 µM, K1 buffer, DNA 0.2 µM, with: ds26 10 µM | – | ΔTm | 5.8 ± 0.5 °C |
| Cc1ncsc1-c1ccc(C(C)NC(=O)C2CC(O)CN2C(=O)C(NC(=O)CCCCCCCCCCN2CCCC(Nc3ncc(Cl)c(Nc4ccccc4S(=O)(=O)C(C)C)n3)C2)C(C)(C)C)cc1 (stereo not shown) | 22Rv1 | RNA-seq, refers to: SMIM10L2B mRNA | – | concentration not given | relative to: DMSO | log2 fold change | -2.29 |
| O=C(N/N=C/c1ccc(C[n+]2ccccc2)cc1)N/N=C/c1ccc(C[n+]2ccccc2)cc1 | myc22 MYC G4-DNA parallel | FRET melting | – | 1 µM, K1 buffer, DNA 0.2 µM | – | ΔTm | 4.1 ± 0.6 °C |
| CN1CCCNC(=O)c2cccc(c2)C(=O)NCCCN(C)CCCNc2cccc3c2C(=O)c2cccc(c2C3=O)NCCC1 | SAS | RNA-Seq, refers to: NOSIP mRNA | – | 1 µM, 6 h | relative to: untreated cells | log2 fold change | -0.658 |
